Published values of several laboratories.
Lines come from different studies, so protocols differ.

COc1ccccc1/C=C/CNCC(O)COc1ccc(Nc2ccccc2)cc1 (racemic)
AUC(0-inf) (mouse, plasma; oral, 10 mg/kg): 54.4 ng·h/mL

Cc1cc(NC(=O)[C@H](O)c2cc(F)cc(F)c2)ccc1-c1cnc(N)c(C(=O)NC(C)C)c1
AUC(0-inf) (female nude mouse, plasma; oral, 30 mg/kg, single dose): 15600 ng·h/mL

COc1cnc2cccc(N3CCc4c(cc(Cn5ccnc5)cc4-c4cn(C)nc4C(F)(F)F)C3=O)c2c1
AUC(0-inf) (male CD-1 mouse, plasma; intraperitoneal, 10 mg/kg): 11300 ng·h/mL

CCOC(=O)c1nc2cc(Cl)c(Cl)cc2nc1N1CCN(C(=O)Nc2ccc(N3CCNCC3)cc2)CC1
AUC(0-inf) (male mouse, plasma; oral, 10 mg/kg): 372 ng·h/mL

Cn1ccc(-c2cc(Cl)c(Cl)c3[nH]c4c(c23)CN(C(=O)CO)CC4)n1
AUC(0-inf) (C57BL/6 mouse, blood; oral, 100 mg/kg): 271 µM·h

Cc1ccc(Nc2nc(NCc3ccco3)c3ccccc3n2)cc1
relative translation (Trypanosoma cruzi; reporter mRNA translation, inhibitor, refers to: capped polyadenylated Renilla luciferase mRNA; cell-free extract; concentration not given; baseline: control RNA): 82.7%

C[C@@H](Nc1nc2c(cnn2C(C)(C)C)c(=O)n1Cc1cccc(F)c1)c1ccc(Cl)cc1
AUC(0-inf) (C57BL/6 mouse, plasma; intravenous, 2.5 mg/kg): 1510 ng·h/mL

OCCn1nc(-c2ccccc2)c2c(Cl)c(-c3ccccc3)nnc21
AUC(0-inf) (mouse, plasma; intraperitoneal, 3 mg/kg): 1.71 µM·h

COc1cc(OCCN2CCOCC2)cnc1-c1nc2cc(OC(F)(F)F)ccc2[nH]1
AUC(0-inf) (mouse, plasma; intraperitoneal, 100 mg/kg): 0.0347 µM·h

C/C(N)=N/C(=N\S(=O)(=O)c1ccc(C(F)(F)F)cc1)N1C[C@H](c2ccccc2)C(c2ccc(Cl)cc2)=N1
AUC(0-inf) (male C57BL/6 mouse, lung; intravenous, 5 mg/kg): 23100 ng·h/mL

O=C(Nc1ccccc1)C12CC3CC(C1)CC(n1cnc([N+](=O)[O-])n1)(C3)C2
relative translation (Trypanosoma cruzi; reporter mRNA translation, inhibitor, refers to: capped polyadenylated Renilla luciferase mRNA; cell-free extract; concentration not given; baseline: control RNA): 112%

Cn1c2cc([S+](C)[O-])sc2c2cnn(Cc3cccc(N)c3)c(=O)c21 (centres unmarked)
AUC(0-inf) (male BALB/c mouse, plasma; intraperitoneal, 50 mg/kg, single dose): 131000 ng·h/mL

CC[C@H](C)/C=C/C=C/C=C/C(O)=C/C(=O)C(F)(F)F
AUC(0-inf) (female C57BL/6 mouse, plasma; oral, 25 mg/kg): 18800 ng·h/mL

Cc1cc(NCCOC(C)C)c2nc(N3CCOC[C@H]3C)cc(=O)n2c1
AUC(0-inf) (C57BL/6 mouse, plasma; intraperitoneal, 10 mg/kg, single dose): 16500 ng·h/mL

For quick reference, copied from above:
COc1ccccc1/C=C/CNCC(O)COc1ccc(Nc2ccccc2)cc1 (racemic)
AUC(0-inf) (mouse, plasma; oral, 10 mg/kg): 54.4 ng·h/mL

Cc1cc(NC(=O)[C@H](O)c2cc(F)cc(F)c2)ccc1-c1cnc(N)c(C(=O)NC(C)C)c1
AUC(0-inf) (female nude mouse, plasma; oral, 30 mg/kg, single dose): 15600 ng·h/mL
